{"data": "Published values from different studies", "note": "Each line is one published result; not all experiments were run side by side. Numbers after ± are the reported error."}
{"Structure (SMILES)": "CNCCCn1c2ccc([N+](=O)[O-])cc2c(=O)n1Cc1ccccc1", "assay": "resazurin", "system": "peritoneal macrophages, BALB/c mice", "setting": "48 h, 10% FBS", "endpoint": "CC50", "value": "2500 ± 400 nM"}
{"Structure (SMILES)": "COC(=O)c1ccc(-c2cn(Cc3cc(Cl)ccc3O[11CH3])nn2)cc1", "assay": "PET, one-tissue compartment model", "system": "rhesus monkey, brain WB", "setting": "dose not given", "endpoint": "distribution volume", "value": "0.47 mL/cm³"}
{"Structure (SMILES)": "CC(=O)N[C@H](CSSC[C@H](N)C(=O)O)C(=O)N[C@H](C)C(=O)N[C@H](CCCNC(=N)N)C(=O)N[C@H](CCCNC(=N)N)C(=O)N[C@H](CCCNC(=N)N)C(=O)N[C@H](C)C(=O)N[C@H](CCCNC(=N)N)C(N)=O", "system": "male human, plasma", "setting": "intravenous, 10 mg, single dose, healthy volunteers", "endpoint": "clearance", "value": "130 mL/min"}
{"Structure (SMILES)": "N#Cc1cnc2cc(OCC3CCNCC3)c(F)cc2c1Nc1cc(F)c(OCc2cccc(Cl)n2)cc1Cl", "system": "female CD-1 mouse, plasma", "setting": "oral, 20 mg/kg", "endpoint": "MRT", "value": "8.9 h"}
{"Structure (SMILES)": "C[C@H]1Nc2nc(=O)c3[nH]ccc3n2Cc2ccc(Cl)cc21", "system": "dog, both sexes, plasma", "setting": "oral, 100 mg/kg/day", "how to read": "baseline: dog over human 15 mg", "endpoint": "exposure ratio", "value": 8.6}
{"Structure (SMILES)": "CCC1(CC)C[C@@H](NC(=O)Nc2cccc3c(C)nccc23)c2cc(F)ccc2O1", "system": "rat, resiniferatoxin-desensitized", "setting": "intraperitoneal, 3 mg/kg, ambient 27 °C", "endpoint": "body temperature", "value": "decreased"}
{"Structure (SMILES)": "COc1cc(C)c(Cc2ccc(O)cc2)cc1[C@@H]1S[C@H](CO)[C@@H](O)[C@H](O)[C@H]1O", "system": "Japanese T2DM patients, plasma", "setting": "5 mg luseogliflozin, day 7, once daily", "endpoint": "Cmax", "value": "15.3 ± 2.37 ng/mL"}
{"Structure (SMILES)": "N=C(N)NCCC[C@@H]1NC(=O)[C@H](Cc2c[nH]c3ccccc23)NC(=O)[C@@H](CC2CCCCC2)NC(=O)[C@@H]2CCCN2C(=O)[C@@H](NC(=O)CCc2ccccc2)CCCNC1=O", "system": "C57BL/6J mice, brain", "setting": "intravenous, 1 mg/kg, two-compartment model", "endpoint": "apparent distributional clearance", "value": "43.7 ng/(min·ng/g)"}
{"Structure (SMILES)": "Cn1c(=O)oc2ccc(-c3ccc(CC(C#N)NC(=O)C4CNCCCO4)c(F)c3)cc21 (stereo not drawn)", "system": "human", "setting": "oral, 40 mg once daily, treatment-related AE, multiple ascending dose", "endpoint": "mouth ulceration incidence", "value": "0%"}
{"Structure (SMILES)": "CC(=O)N[C@@H](CC(N)=O)C(=O)NCC(=O)N[C@@H](CCCNC(=N)N)C(=O)N[C@@H](C)C(N)=O", "assay": "1H NMR", "system": "sodium phosphate buffer 50 mM", "setting": "pH 7.4, 46 °C", "endpoint": "half-life of Asn form", "value": "13 h"}
{"Structure (SMILES)": "O=C(CCc1ccc(CNC(C(=O)OC2CCCC2)C2CCCCC2)cn1)NO (stereo not drawn)", "system": "human", "setting": "oral, 40 mg, single dose, geometric mean", "endpoint": "Vz/F", "value": "158 L"}
{"Structure (SMILES)": "COc1ccc(Nc2nc(Nc3ccc(OCCOCC[18F])cc3)ncc2Br)cc1", "system": "ICR mice, S180 tumour", "setting": "intravenous, 370 kBq, 30 min", "how to read": "baseline: tumour over blood", "endpoint": "uptake ratio", "value": 1.94}
{"Structure (SMILES)": "O=C(O[C@@H]1Cc2c(O)cc(O)cc2O[C@@H]1c1cc(O)c(O)c(O)c1)c1cc(O)c(O)c(O)c1", "assay": "sulfation, substrate", "system": "human liver cytosol", "setting": "10 min, pH 7.4", "endpoint": "Km", "value": "0.24 ± 0.08 µM"}
{"Structure (SMILES)": "CCCC(CCC)NC(=O)c1ccc(OC2OC(C(=O)O)C(O)C(O)C2O)c(O)c1 (stereo not drawn)", "system": "female Sprague-Dawley rat, plasma", "setting": "oral, 20 mg/kg of parent drug", "endpoint": "Tmax", "value": "5 h"}
{"Structure (SMILES)": "COC(=O)C(c1ccccc1Cl)N1CCC(SCC(=O)c2cccc(OC)c2)C(=CC(=O)O)C1 (mixture of isomers)", "assay": "HPLC-MS/MS", "system": "feline citrate plasma", "setting": "100 ng/mL, 24 h, -20 °C, storage stability", "endpoint": "deviation from nominal", "value": "-9%"}
{"Structure (SMILES)": "Cc1ccccc1/N=N/c1ccc(/N=N/c2c(O)ccc3ccccc23)c(C)c1", "system": "extracted rat blood QC samples", "setting": "0.5 µg/L, 4 h, room temperature, short-term stability", "endpoint": "measured concentration", "value": "0.483 µg/L"}
{"Structure (SMILES)": "Cc1ccc(-c2ccc(-c3cc4sccc4o3)cn2)nc1", "system": "MeOH", "setting": "together with: quinine bisulfate reference", "endpoint": "fluorescence quantum yield", "value": 0.65}
{"Structure (SMILES)": "CC[C@H](C)[C@H](NC(=O)[C@H](N)Cc1ccc(O)cc1)C(=O)N[C@H]1CSSC[C@@H](C(=O)N(C)[C@H](C(N)=O)[C@@H](C)CC)NC(=O)[C@H](CCCNC(=N)N)NC(=O)[C@H](Cc2c[nH]cn2)NC(=O)[C@H](C)NC(=O)CN(C)C(=O)[C@H](Cc2c[nH]c3ccccc23)NC(=O)[C@H](CC(=O)O)NC(=O)[C@H](CCC(N)=O)NC(=O)[C@H](Cc2cn(C)c3ccccc23)NC(=O)[C@H](C(C)C)NC1=O", "assay": "UPLC-ESI-MS", "system": "cynomolgus monkey plasma", "setting": "0.18 µg/mL, 48 h, 25 °C, bench-top after SPE", "endpoint": "recovery", "value": "100.4 ± 0.5%"}
{"Structure (SMILES)": "CC(=O)N[C@H](CCNC(=O)c1cc(NC(=O)c2cc(NC(=O)c3cc(NC(=O)c4nccn4C)cn3C)cn2C)cn1C)C(=O)Nc1cn(C)c(C(=O)Nc2cc(C(=O)Nc3cc(C(=O)Nc4cc(C(=O)NCCCN(C)CCCN[14C](=O)c5cccc([14C](=O)O)c5)n(C)c4)n(C)c3)n(C)c2)n1", "system": "BALB/c male mice, lung", "setting": "intraperitoneal, 15 nmol per animal, 24 h", "endpoint": "tissue concentration", "value": "~0.1 mg/kg"}
{"Structure (SMILES)": "C[C@H](NC(=O)COC(=O)[C@H](C)NC(=O)CO)C(=O)O", "system": "water", "setting": "pH 7, 37 °C", "endpoint": "depolymerization half-life", "value": "7.2 min"}
{"Structure (SMILES)": "CCCC[C@H](NC(=O)CNC(=O)CNC(=O)CN1CCN(CC(=O)O)CCN(CC(=O)O)CC1)C(=O)N[C@H]1CC(=O)NCCCC[C@@H](C(N)=O)NC(=O)[C@H](Cc2c[nH]c3ccccc23)NC(=O)[C@H](CCCNC(=N)N)NC(=O)[C@@H](Cc2ccccc2)NC(=O)[C@H](Cc2c[nH]cn2)NC1=O [copper-64 labelled]", "system": "female C57 mouse, B16/F1 melanoma", "setting": "intravenous, 0.037 MBq, 0.5 h", "how to read": "baseline: tumour over stomach", "endpoint": "uptake ratio", "value": 19.2}
{"Structure (SMILES)": "CC[C@H](C)[C@@H]1NC(=O)[C@H](Cc2ccccc2)NC(=O)[C@@H](NC(=O)[C@H](CCCNC(=N)N)NC(=O)[C@H](Cc2ccccc2)NC(=O)[C@H](Cc2ccccc2)NC(=O)[C@H](CCCCN)NC(=O)[C@H](CO)NC(=O)[C@H](CC(C)C)NC(=O)[C@H](CCCNC(=N)N)NC(=O)[C@H](CCSC)NC(=O)[C@H](C)N)CCCNC(=O)NCCC[C@@H](C(=O)N[C@@H](CCCNC(=N)N)C(=O)N[C@@H](CCCCN)C(=O)N[C@@H](CCCCN)C(=O)O)NC(=O)[C@H](CC(C)C)NC1=O", "assay": "circular dichroism", "system": "20% TFE in PBS", "setting": "200 µM, pH 7.4, 25 °C", "endpoint": "helicity", "value": "14.6%"}
{"Structure (SMILES)": "CC(C)(Sc1ccncc1-c1ccc(C#N)c2ccccc12)C(=O)OC1OC(C(=O)O)C(O)C(O)C1O (stereo not drawn)", "system": "adult men, plasma", "setting": "oral, 15 mg verinurad, mild renal impairment", "how to read": "baseline: normal renal function", "endpoint": "AUC(0-inf) increase", "value": "15%"}
{"Structure (SMILES)": "CC(C)[C@H](NC(=O)CNC(=O)[C@H](CCC(N)=O)NC(=O)[C@H](C)N)C(=O)O", "system": "male human, plasma", "setting": "intravenous, 10 mg/kg, single dose", "endpoint": "clearance", "value": "950 mL/min/kg"}
{"Structure (SMILES)": "CC[N+]1(Cc2ccc3ccc(O)c(C#N)c3n2)CCCC1CNC(=O)c1cc(S(N)(=O)=O)ccc1OC (stereo not drawn)", "system": "KMOPS buffer", "setting": "100 µM, pH 7.2", "endpoint": "dark stability", "value": "72 h"}
{"Structure (SMILES)": "CC(C)c1cnc(-c2cc(Cl)ccc2F)cc1Nc1ccncc1C(=O)NC(CO)CO", "assay": "item: any event, worst grade", "system": "human patients", "setting": "oral, dose not given, grade 5", "endpoint": "patients with related SAE", "value": "0%"}
{"Structure (SMILES)": "CN1CCC[C@]1(C)/C=C/S(=O)(=O)NC(=O)Nc1c2c(cc3c1CCC3)CCC2", "system": "human, plasma", "setting": "oral, 50 mg twice daily, day 14, multiple ascending dose", "endpoint": "Cmax after first dose", "value": "8100 ng/mL"}
